Published values gathered from unrelated publications.
Lines come from different studies, so protocols differ.
Organism: Staphylococcus aureus

For `CC1CCN(C(=O)c2cccc(NC(=O)Nc3ccc(F)cc3)c2)CC1`, the MIC was greater than 64 µg/mL (checkerboard, item: ceftobiprole; CRB, PBP4 overexpressor; 25 µM).
For `CC(C)C[C@@H](NC(=O)[C@@H](CCCNC(=N)N)NC(=O)[C@H](N)CCCNC(=N)N)C(=O)N[C@H](CC(C)C)C(=O)N[C@H](CCCNC(=N)N)C(=O)N[C@H](CCCCN)C(=O)N[C@H](CC(C)C)C(=O)N[C@H](CCCCN)C(=O)NCC(=O)N[C@H](CCCCN)C(=O)N[C@H](CCCCN)C(=O)N[C@H](CC(C)C)C(=O)N[C@H](Cc1ccc(O)cc1)C(=O)N[C@H](CC(C)C)C(=O)N[C@H](Cc1ccc(O)cc1)C(=O)N[C@H](Cc1ccccc1)C(=O)N[C@H](CCCCN)C(=O)N[C@H](CC(C)C)C(=O)N[C@H](CCC(N)=O)C(=O)N[C@H](CC(C)C)C(=O)N[C@H](CC(C)C)C(=O)N[C@H](CCCCN)C(=O)N[C@H](CCCCN)C(N)=O`, the MIC was 4 µM (CCARM 3095, methicillin-resistant, Mueller-Hinton broth; 24 h).
The MIC of `CC[C@H](C)[C@@H]1NC(=O)[C@H](CO)NC(=O)C(C)(CCCCN)NC(=O)[C@@H]2CSSC[C@@H](C(=O)N[C@@H](Cc3ccc(O)cc3)C(N)=O)NC(=O)[C@H](CCCCN)NC(=O)[C@@H]3CSSC[C@H](NC(=O)[C@H](CCCNC(=N)N)NC(=O)C(C)(CC(C)C)NC(=O)[C@H](CC(=O)O)NC(=O)[C@H](CC(=O)O)NC(=O)[C@H](CCC(=O)O)NC(=O)[C@H](CC(N)=O)NC(=O)[C@H](Cc4c[nH]c5ccccc45)NC(=O)C(C)(CC)NC(=O)CNC(=O)[C@H](CC(N)=O)NC(=O)[C@@H](NC(=O)CNC(=O)[C@H](Cc4ccccc4)NC(=O)CN)CSSC[C@H](NC(=O)[C@H](Cc4ccc(O)cc4)NC(=O)CNC(=O)CNC(=O)[C@H](CCCCN)NC(=O)[C@H](Cc4ccc(O)cc4)NC(=O)[C@H]4CCCN4C(=O)[C@@H]4CCCN4C1=O)C(=O)N[C@@H](C)C(=O)N[C@@H](CCCCN)C(=O)N1CCC[C@@H]1C(=O)NCC(=O)N[C@@H](Cc1ccccc1)C(=O)N[C@@H](C(C)C)C(=O)N3)C(=O)N[C@@H](Cc1c[nH]cn1)C(=O)NC(C)(C)C(=O)N[C@@H](Cc1c[nH]cn1)C(=O)N2` (stereo partly shown) is reported as 2 µM (469, methicillin-resistant mecA, cation-adjusted Mueller Hinton broth; 18 h, 37 °C).
With `CC(C)[C@H](NC(=O)[C@H](Cc1ccc(O)cc1)NC(=O)[C@H](CS)NC(=O)[C@@H](NC(=O)[C@H](CCCNC(=N)N)NC(=O)[C@H](Cc1ccccc1)NC(=O)[C@H](CS)NC(=O)[C@H](Cc1c[nH]c2ccccc12)NC(=O)[C@@H](N)CCCNC(=N)N)C(C)C)C(=O)NCC(=O)N[C@@H](Cc1ccccc1)C(=O)N[C@@H](CS)C(=O)N[C@@H](Cc1ccc(O)cc1)C(=O)N[C@@H](Cc1c[nH]c2ccccc12)C(=O)N[C@@H](CCCCN)C(=O)N[C@@H](CS)C(=O)N[C@@H](CCCNC(=N)N)C(=O)O` the MIC was 0.94 log10 µg/mL (broth microdilution; ATCC 25923).
The MIC of `COc1ccc2ccc(O)c(/C=N/[C@H]3CCCC[C@H]3/N=C/c3cc(C(C)(C)C)cc(C(C)(C)C)c3O)c2c1` is reported as greater than 40 µM (bacterial growth, broth microdilution; vancomycin-intermediate).
With `C#CCOc1ccc(CN[C@@]2(C)C[C@H](O[C@H]3[C@H](Oc4c5cc6cc4Oc4ccc(cc4Cl)[C@@H](O)[C@@H](NC(=O)[C@@H](CC(C)C)NC)C(=O)N[C@@H](CC(N)=O)C(=O)N[C@H]6C(=O)N[C@H]4C(=O)N[C@H](C(=O)N[C@H](C(=O)O)c6cc(O)cc(O)c6-c6cc4ccc6O)[C@H](O)c4ccc(c(Cl)c4)O5)O[C@H](CO)[C@@H](O)[C@@H]3O)O[C@@H](C)[C@H]2O)cc1OC` the MIC was 10 µM (LIM-2 VISA).
`Cc1ccc2nc(C)c(C(=O)C(=O)N(C)C)n2c1` has an MIC of greater than 128 µM (microbial growth, broth dilution).
`CCn1c(-c2ccc(F)cc2)c(-c2ccc(F)cc2)n(CCOC)c1=[Se]` gave an MIC of greater than 40 µM (microbial growth, broth dilution; ATCC700699 VISA; 24 h, drug-resistant strain).
`CC[C@H]1OC(=O)[C@H](C)[C@@H](OC(=O)Cc2cccc([N+](=O)[O-])c2)[C@H](C)[C@@H](O[C@@H]2O[C@H](C)C[C@H](N(C)C)[C@H]2O)[C@](C)(OC)C[C@@H](C)C(=O)[C@H](C)[C@@H](O)[C@]1(C)O` gave an MIC of less than 1 µg/mL (BAA-976 msr(A)).
`Cc1ccc2[nH]c3c(c2c1)CCCC3NCCc1ccc(O)cc1` (stereo not shown) has an MIC of 16 µg/mL (broth microdilution; HG001).
With `CC[C@H](C)[C@H](NC(=O)[C@@H]1CCCN1C(=O)[C@H](CC(C)C)NC(=O)[C@@H](N)CC(C)C)C(=O)N[C@H](C(=O)NCC(=O)N[C@@H](CC(N)=O)C(=O)N[C@@H](CC(C)C)C(=O)N[C@@H](CC(C)C)C(=O)N[C@@H](CCCCN)C(=O)N[C@@H](CO)C(=O)N[C@@H](CC(C)C)C(=O)N[C@@H](CC(C)C)C(N)=O)C(C)C` the MIC was 16 µg/mL (broth dilution; ATCC 25923; 24 h, 37 °C).
`CCCC[C@H](NC(=O)[C@H](Cc1ccc(O)cc1)NC(=O)[C@@H]1CCCN1C(=O)[C@@H]1CCCN1C(=O)[C@H](CCCCN)NC(=O)[C@H](CC(=O)O)NC(=O)[C@@H](N)C(C)C)C(=O)N1CCC[C@H]1C(=O)N[C@@H](CCCNC(=N)N)C(=O)N1CCC[C@H]1C(=O)N[C@@H](CCCNC(=N)N)C(=O)N1CCC[C@H]1C(=O)N1CCC[C@H]1C(=O)N[C@@H](CCCNC(=N)N)C(=O)N[C@H](CCCNC(=N)N)C(=O)N[C@H](C(=O)N[C@@H](Cc1ccc(O)cc1)C(=O)N[C@@H](CC(N)=O)C(=O)N[C@H](CCCNC(=N)N)C(N)=O)[C@@H](C)CC` gave an MIC of greater than 128 µg/mL (broth microdilution; DSM 6247; 18 h, 37 °C, 25% MHB2).
`CN[C@@H]1[C@H](O)[C@H](NC)[C@H]2O[C@]3(O)[C@H](O[C@@H]2[C@H]1O)O[C@H](C)C[C@H]3NC(=O)Cc1ccccn1` gave an MIC of 50 µg/mL (microbial growth, broth dilution; 8325).
With `C#CCNC(=O)[C@H]1NC(=O)[C@H]2NC(=O)[C@H](NC(=O)[C@@H]3NC(=O)[C@H](CC(N)=O)NC(=O)[C@H](NC(=O)[C@@H](CC(C)C)NC)[C@H](O)c4ccc(c(Cl)c4)Oc4cc3cc(c4O[C@@H]3O[C@H](CO)[C@@H](O)[C@H](O)[C@H]3O[C@H]3C[C@](C)(N)[C@H](O)[C@H](C)O3)Oc3ccc(cc3Cl)[C@H]2O)c2ccc(O)c(c2)-c2c(O)cc(O)cc21` the MIC was 0.336 µM (MRSA USA300).
For `CSCC[C@H](NC=O)C(=O)N[C@@H](CCCNC(=N)N)C(=O)N[C@H](C(=O)NCC(=O)N[C@@H](CC(N)=O)C(=O)N[C@@H](C)C(=O)N[C@@H](CC(N)=O)C(=O)NCC(=O)N1CCN(c2cc3c(cc2F)c(=O)c(C(=O)O)cn3C2CC2)CC1)[C@@H](C)O`, the MIC was 80 µM (broth dilution; Newman).
For `CC[C@H](C)[C@H](N)C(=O)N[C@@H](C)C(=O)N[C@@H](CC(C)C)C(=O)N[C@H](CCC(=O)O)C(=O)N[C@H](C(=O)N[C@H]1CCCCNC(=O)[C@H](CC(N)=O)NC(=O)[C@@H](CC(=O)O)NC(=O)[C@H](Cc2c[nH]cn2)NC(=O)[C@@H](Cc2ccccc2)NC(=O)[C@H]([C@@H](C)CC)NC(=O)[C@@H](CCCN)NC1=O)[C@@H](C)CC`, the MIC was greater than 64 µg/mL (USA300 methicillin-resistant; 18 h, 37 °C, 0.3 mM ZnSO4 LB).
`CC[C@H](C)[C@H](NC(=O)[C@@H](CCCNC(=N)N)NC(=O)[C@H](CCCNC(=N)N)NC(=O)[C@H](CC(=O)O)NC(=O)[C@H](Cc1c[nH]c2ccccc12)NC(=O)[C@H](CCCNC(=N)N)NC(=O)[C@@H]1CCCN1C(=O)[C@H](CCCNC(=N)N)NC(=O)[C@@H]1CCCN1C(=O)[C@H](CC(C)C)NC(=O)[C@H](Cc1ccc(O)cc1)NC(=O)[C@@H]1CCCN1C(=O)[C@@H]1CCCN1C(=O)[C@H](CCCCN)NC(=O)[C@H](CC(=O)O)NC(=O)[C@@H](N)C(C)C)C(=O)N[C@@H](Cc1ccc(O)cc1)C(=O)N[C@@H](CC(N)=O)C(=O)N[C@H](CCCNC(=N)N)C(N)=O` has an MIC of greater than 128 µg/mL (broth microdilution; DSM 6247; 18 h, 37 °C, 25% MHB2).
The MIC of `CC(C)CCCCCCCCC/C=C/C(=O)N[C@@H](CC(N)=O)C(=O)N[C@H]1CNC(=O)[C@@H]2CCCN2C(=O)[C@H](C(C)C)NC(=O)[C@@H](CN)NC(=O)CNC(=O)[C@H](CC(=O)O)NC(=O)CNC(=O)[C@H](CC(=O)O)NC(=O)[C@H](CC(=O)O)NC(=O)[C@H]2CCCCN2C1=O` is reported as 4 µg/mL (broth microdilution; VISA LIM strain 2, Mueller-Hinton broth, Mg2+ 10 mg/L; 16 h, together with: Ca2+ 2.5 mM).
With `CN[C@H](CC(C)C)C(=O)N[C@H]1C(=O)N[C@@H](CC(N)=O)C(=O)N[C@H]2C(=O)N[C@H]3C(=O)N[C@H](C(=O)N[C@H](C(=O)N[C@@H](CCCNC(=N)N)C(N)=O)c4cc(O)cc(O)c4-c4cc3ccc4O)[C@H](O)c3ccc(c(Cl)c3)Oc3cc2cc(c3O[C@@H]2O[C@H](CO)[C@@H](O)[C@H](O)[C@H]2O[C@H]2C[C@](C)(NCc3ccc(OCc4cn(CC(=O)N[C@H](C(=O)N[C@@H](CCN)C(=O)N[C@H]5CCNC(=O)[C@H]([C@@H](C)O)NC(=O)[C@H](CCN)NC(=O)[C@H](CCN)NC(=O)[C@H](CC(C)C)NC(=O)[C@@H](CC(C)C)NC(=O)[C@H](CCN)NC5=O)[C@@H](C)O)nn4)c(OC)c3)[C@H](O)[C@H](C)O2)Oc2ccc(cc2Cl)[C@H]1O` the MIC was 8 µg/mL (broth microdilution; VISA LIM-2, tryptic soy broth; 20 to 24 h, 37 °C, 0.002% polysorbate 80).

Repeated from above:
`CN[C@@H]1[C@H](O)[C@H](NC)[C@H]2O[C@]3(O)[C@H](O[C@@H]2[C@H]1O)O[C@H](C)C[C@H]3NC(=O)Cc1ccccn1` gave an MIC of 50 µg/mL (microbial growth, broth dilution; 8325).
With `C#CCNC(=O)[C@H]1NC(=O)[C@H]2NC(=O)[C@H](NC(=O)[C@@H]3NC(=O)[C@H](CC(N)=O)NC(=O)[C@H](NC(=O)[C@@H](CC(C)C)NC)[C@H](O)c4ccc(c(Cl)c4)Oc4cc3cc(c4O[C@@H]3O[C@H](CO)[C@@H](O)[C@H](O)[C@H]3O[C@H]3C[C@](C)(N)[C@H](O)[C@H](C)O3)Oc3ccc(cc3Cl)[C@H]2O)c2ccc(O)c(c2)-c2c(O)cc(O)cc21` the MIC was 0.336 µM (MRSA USA300).
For `CSCC[C@H](NC=O)C(=O)N[C@@H](CCCNC(=N)N)C(=O)N[C@H](C(=O)NCC(=O)N[C@@H](CC(N)=O)C(=O)N[C@@H](C)C(=O)N[C@@H](CC(N)=O)C(=O)NCC(=O)N1CCN(c2cc3c(cc2F)c(=O)c(C(=O)O)cn3C2CC2)CC1)[C@@H](C)O`, the MIC was 80 µM (broth dilution; Newman).
